{"data": "Results from different studies", "note": "Compare with care: the assays were run in different laboratories. ± marks the error that the study gave."}
{"Structure (SMILES)": "CN[C@@](C)(C[18F])C(=O)O", "system": "SCID mouse U87 xenograft", "setting": "120 min post injection", "quantity": "tumour uptake", "value": "5.1 ± 1.1 %ID/g"}
{"Structure (SMILES)": "CCCCCOc1ccc(-c2ccc(-c3ccc(C(=O)N[C@H]4C[C@@H](O)[C@@H](O)NC(=O)[C@@H]5[C@@H](O)[C@@H](C)CN5C(=O)[C@H]([C@@H](C)O)NC(=O)[C@H]([C@H](O)[C@@H](O)c5ccc(O)cc5)NC(=O)[C@@H]5C[C@@H](O)CN5C(=O)[C@H]([C@@H](C)O)NC4=O)cc3)cc2)cc1", "system": "human patients aged 5 to sample A years, plasma", "setting": "iv, loading 3.0 mg/kg then 1.5 mg/kg daily, steady state, mean", "quantity": "Cmin,ss", "value": "2520 ng/mL"}
{"Structure (SMILES)": "O=C(CC(=O)c1ccccc1)c1ccccc1", "system": "Sprague-Dawley rat, male, plasma", "setting": "oral, 50 mg/kg, regular emulsion", "quantity": "absolute bioavailability", "value": "11.5 ± 1.94%"}
{"Structure (SMILES)": "CCCc1nn(C)c2c(=O)[nH]c(-c3cc(S(=O)(=O)N4CCN(C)CC4)ccc3OCC)nc12", "system": "human patients", "setting": "on drug", "quantity": "serum uric acid", "value": "6.84 mg/dL"}
{"Structure (SMILES)": "COc1ccc(C[C@@H]2NC(=O)[C@H]([C@@H](C)O)NC(=O)[C@@H]3[C@@H]4CCN3C(=O)[C@@H]3Cc5cn(c6ccc(F)cc56)CCCCCCN(Cc5ccc(cc5)CCNC(=O)[C@]5(C)CCCN5C2=O)C(=O)CCC(=O)N[C@@H](C)C(=O)N[C@H](CNC(=O)CCCCC[N+](C)(C)C)C(=O)N[C@@H](Cc2cccc(c2)CNC(=O)CO4)C(=O)N3)cc1", "system": "fasted healthy humans, plasma", "setting": "oral, 100 mg single dose, with 1800 mg Labrasol, median", "quantity": "Tmax", "value": "1.5 h"}
{"Structure (SMILES)": "CCNc1nc(Cl)nc(NCC)n1", "assay": "LC-MS/MS", "system": "herbicide solution", "setting": "2 h, 23 °C, with: 254 nm UV exposure", "quantity": "remaining amount", "value": "45.1 ± 13%"}
{"Structure (SMILES)": "c1cc2ccc3cccc4ccc(c1)c2c34", "assay": "HPLC-fluorescence", "system": "Wistar rat, male, kidney", "setting": "oral, 4 mg/kg, 24 h", "quantity": "tissue concentration", "value": "13.8 ± 2.1 ng/g"}
{"Structure (SMILES)": "O[C@H]1CCCN[C@@H]1CCCn1cnc2c(Cl)c(Cl)ccc21", "system": "healthy human volunteers, plasma", "setting": "oral, 200 mg, day 1, multiple ascending dose", "quantity": "Vz/F", "value": "1340 L"}
{"Structure (SMILES)": "CNC(=O)c1ccc(-c2cnn3ccc(C(=O)N(C)c4ccc(Cl)c(C(=O)OC)c4)cc23)cc1", "system": "beagle dogs, both sexes, plasma", "setting": "oral, 15 mg/kg/day, day 14, 2-week toxicology study", "quantity": "AUC(0-8 h)", "value": "67.8 ng·h/mL"}
{"Structure (SMILES)": "CC[C@H](C)[C@H](NC(=O)[C@H](CO)NC(=O)[C@H](C)NC(=O)[C@@H](NC(=O)CNC(=O)[C@H](CO)NC(=O)[C@@H](NC(=O)[C@@H](NC(=O)[C@H](Cc1c[nH]cn1)NC(=O)[C@@H]1CCCN1C(=O)[C@@H](NC(=O)[C@H](CC(C)C)NC(=O)[C@H](CO)NC(=O)[C@H](CC(C)C)NC(=O)[C@@H](N)Cc1ccccc1)[C@@H](C)CC)[C@@H](C)CC)C(C)C)C(C)C)C(=O)N[C@@H](C)C(=O)N[C@@H](CCCCN)C(=O)N[C@@H](Cc1c[nH]cn1)C(=O)N[C@@H](Cc1ccccc1)C(N)=O", "assay": "UPLC-MS/MS", "system": "rat plasma", "setting": "1.6 µg/mL, three freeze-thaw cycles", "quantity": "concentration found", "value": "1580 ng/mL"}
{"Structure (SMILES)": "O=C(O)CN(CCN(CC(=O)O)CC(=O)O)CCN(CC(=O)O)CC(=O)O", "system": "beagle dog", "setting": "intravenous, 300 µM, 50% binding threshold", "quantity": "time above binding threshold", "value": "3.6 h"}
{"Structure (SMILES)": "[123I]c1cncc(OC[C@@H]2CCN2)c1", "assay": "SPECT", "system": "human, brain cortex", "setting": "intravenous bolus plus infusion, 7.8 mCi", "scale": "relative to: plasma", "quantity": "tissue/plasma ratio", "value": 20.9}
{"note": "Excerpt of the above:"}
{"Structure (SMILES)": "O=C(CC(=O)c1ccccc1)c1ccccc1", "system": "Sprague-Dawley rat, male, plasma", "setting": "oral, 50 mg/kg, regular emulsion", "quantity": "absolute bioavailability", "value": "11.5 ± 1.94%"}
